Published values of several laboratories.
“And” joins repeats or separate records; there may be more than shown. ± gives the spread as reported.
Sequence of UniProt P35372 (whole entry, looked up): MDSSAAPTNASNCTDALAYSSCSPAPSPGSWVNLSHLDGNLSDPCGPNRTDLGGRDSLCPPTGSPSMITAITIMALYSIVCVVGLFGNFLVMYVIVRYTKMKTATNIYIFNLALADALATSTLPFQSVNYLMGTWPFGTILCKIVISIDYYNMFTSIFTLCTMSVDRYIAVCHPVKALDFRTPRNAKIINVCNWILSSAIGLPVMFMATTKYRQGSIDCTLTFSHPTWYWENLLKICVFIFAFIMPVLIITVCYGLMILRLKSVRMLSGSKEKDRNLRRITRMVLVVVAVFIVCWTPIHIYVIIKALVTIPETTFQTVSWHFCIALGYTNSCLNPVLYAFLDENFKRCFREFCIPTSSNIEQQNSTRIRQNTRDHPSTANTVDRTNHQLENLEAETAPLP
Sequence of UniProt Q695T7 (whole entry, looked up): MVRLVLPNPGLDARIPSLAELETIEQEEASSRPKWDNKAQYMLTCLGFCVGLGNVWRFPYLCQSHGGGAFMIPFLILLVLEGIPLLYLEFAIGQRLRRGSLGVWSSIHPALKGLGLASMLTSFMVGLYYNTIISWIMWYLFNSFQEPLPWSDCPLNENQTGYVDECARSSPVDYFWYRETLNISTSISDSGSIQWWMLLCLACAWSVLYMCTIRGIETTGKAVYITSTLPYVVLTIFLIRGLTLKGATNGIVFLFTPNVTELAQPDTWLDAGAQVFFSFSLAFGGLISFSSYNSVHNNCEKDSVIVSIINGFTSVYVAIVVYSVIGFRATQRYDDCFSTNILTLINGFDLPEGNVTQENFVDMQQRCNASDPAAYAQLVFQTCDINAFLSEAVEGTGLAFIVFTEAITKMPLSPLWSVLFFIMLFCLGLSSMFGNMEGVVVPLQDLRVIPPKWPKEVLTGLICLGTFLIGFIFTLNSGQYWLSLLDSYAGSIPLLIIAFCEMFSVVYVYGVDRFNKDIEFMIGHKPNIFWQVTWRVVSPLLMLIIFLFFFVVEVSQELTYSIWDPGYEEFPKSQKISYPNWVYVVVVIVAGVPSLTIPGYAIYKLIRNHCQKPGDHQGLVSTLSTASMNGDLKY

SMILES	target or system	test	test system	conditions	scale	measurement	result
O=[N+]([O-])c1ccc(C2=NOC3(NC(c4ccccc4)=NO3)N2c2ccccc2)cc1 (stereo not drawn)	Plasmodium falciparum	parasite growth	W2mef multidrug-resistant	72 h		IC50	5100 ± 110 nM
CCCCC[C@@H](O)CC(=O)N[C@@H]1C(=O)N[C@H](CCCNC(=N)N)C(=O)N[C@@H](CO)C(=O)NCC(=O)N(C)[C@H](Cc2ccccc2)C(=O)N[C@@H](CC(C)C)C(=O)N[C@H](CCCNC(=N)N)C(=O)N[C@@H](CCC(=O)O)C(=O)N[C@H](CCC(N)=O)C(=O)N[C@H](Cc2c[nH]c3ccccc23)C(=O)N[C@@H]([C@@H](C)CC)C(=O)N[C@@H]([C@@H](C)O)C(=O)O[C@@H]1C	Staphylococcus aureus		USA300	2 x MIC, 60 min		viable cells	500 CFU/mL and 300 CFU/mL
Cn1cc(-c2cccc(CN3CCC4(CC3)COc3c4ccc4c3CN([C@H]3CCC(=O)NC3=O)C4=O)c2)cn1			rat	intravenous, 1 mg/kg, approximate dose		CL	22.4 mL/min/kg and 22.1 mL/min/kg and 16.9 mL/min/kg
CCCNC(=O)COc1ccc(Br)c(C)c1	Sodium-dependent neutral amino acid transporter B(0)AT1 (SLC6A19, Homo sapiens, UniProt Q695T7)	inhibitor, FLIPR membrane potential	CHO-BC	added: 1.5 mM L-leucine		IC50	70 ± 10 nM
CCN1/C(=C/C=C2\CCCC(/C=C/C3=[N+](CC)c4ccccc4C3(C)C)=C2NCCCCCCCCN2CCC(Nc3nc4ccccc4n3Cc3ccc(F)cc3)CC2)C(C)(C)c2ccccc21	U-87 MG	item: MTBP mRNA		concentration not given	relative to: DMSO	log2 fold change	-1.58
N=C(N)NCCCCCCN1CCC23c4c5ccc(O)c4OC2c2nc4ccccc4cc2CC3(O)C1C5 (stereo not drawn)	Mu-type opioid receptor (OPRM1, Homo sapiens, UniProt P35372)	competitor, radioligand binding		100 nM		normalised specific binding	93.1% and 75.4% and 52.4%

A few entries again:
SMILES	target or system	test	test system	conditions	scale	measurement	result
Cn1cc(-c2cccc(CN3CCC4(CC3)COc3c4ccc4c3CN([C@H]3CCC(=O)NC3=O)C4=O)c2)cn1			rat	intravenous, 1 mg/kg, approximate dose		CL	22.4 mL/min/kg and 22.1 mL/min/kg and 16.9 mL/min/kg
